Assay results of several laboratories.
A part holds a random share of what one study measured.
Chain of UniProt Q16512 (whole entry, looked up): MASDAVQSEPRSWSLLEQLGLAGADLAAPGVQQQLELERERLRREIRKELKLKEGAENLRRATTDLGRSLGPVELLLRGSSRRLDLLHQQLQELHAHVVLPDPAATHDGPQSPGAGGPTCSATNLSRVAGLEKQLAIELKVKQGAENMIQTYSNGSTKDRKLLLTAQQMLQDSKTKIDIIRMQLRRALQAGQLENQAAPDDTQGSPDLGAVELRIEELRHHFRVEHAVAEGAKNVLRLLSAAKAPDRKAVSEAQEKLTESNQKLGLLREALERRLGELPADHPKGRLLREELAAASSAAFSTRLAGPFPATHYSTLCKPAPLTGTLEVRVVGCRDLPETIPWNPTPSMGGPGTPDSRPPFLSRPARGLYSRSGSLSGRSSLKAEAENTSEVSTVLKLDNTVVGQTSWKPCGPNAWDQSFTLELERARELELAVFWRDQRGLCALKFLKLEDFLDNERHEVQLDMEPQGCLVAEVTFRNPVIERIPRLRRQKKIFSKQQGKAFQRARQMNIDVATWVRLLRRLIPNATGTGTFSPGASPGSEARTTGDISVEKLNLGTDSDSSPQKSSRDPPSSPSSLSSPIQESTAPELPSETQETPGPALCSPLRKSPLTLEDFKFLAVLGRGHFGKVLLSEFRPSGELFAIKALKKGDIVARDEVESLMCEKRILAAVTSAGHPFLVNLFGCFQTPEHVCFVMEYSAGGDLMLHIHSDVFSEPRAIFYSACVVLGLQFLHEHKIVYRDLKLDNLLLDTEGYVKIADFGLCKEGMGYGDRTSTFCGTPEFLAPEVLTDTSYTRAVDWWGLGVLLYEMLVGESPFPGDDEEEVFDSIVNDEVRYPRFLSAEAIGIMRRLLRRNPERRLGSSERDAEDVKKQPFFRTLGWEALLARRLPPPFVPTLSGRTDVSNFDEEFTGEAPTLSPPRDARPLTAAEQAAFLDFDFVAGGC
Chain of UniProt P13945 (whole entry, looked up): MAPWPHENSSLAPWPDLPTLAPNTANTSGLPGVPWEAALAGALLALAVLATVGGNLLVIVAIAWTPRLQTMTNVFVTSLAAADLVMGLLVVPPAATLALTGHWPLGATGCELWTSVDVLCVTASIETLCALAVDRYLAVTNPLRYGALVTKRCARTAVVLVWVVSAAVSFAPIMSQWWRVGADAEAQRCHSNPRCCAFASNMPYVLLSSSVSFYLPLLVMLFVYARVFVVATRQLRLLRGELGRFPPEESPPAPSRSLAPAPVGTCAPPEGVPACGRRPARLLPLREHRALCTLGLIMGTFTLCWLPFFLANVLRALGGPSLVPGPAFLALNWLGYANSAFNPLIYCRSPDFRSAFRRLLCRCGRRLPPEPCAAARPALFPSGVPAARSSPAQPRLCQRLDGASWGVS
Chain of UniProt P18089 (whole entry, looked up): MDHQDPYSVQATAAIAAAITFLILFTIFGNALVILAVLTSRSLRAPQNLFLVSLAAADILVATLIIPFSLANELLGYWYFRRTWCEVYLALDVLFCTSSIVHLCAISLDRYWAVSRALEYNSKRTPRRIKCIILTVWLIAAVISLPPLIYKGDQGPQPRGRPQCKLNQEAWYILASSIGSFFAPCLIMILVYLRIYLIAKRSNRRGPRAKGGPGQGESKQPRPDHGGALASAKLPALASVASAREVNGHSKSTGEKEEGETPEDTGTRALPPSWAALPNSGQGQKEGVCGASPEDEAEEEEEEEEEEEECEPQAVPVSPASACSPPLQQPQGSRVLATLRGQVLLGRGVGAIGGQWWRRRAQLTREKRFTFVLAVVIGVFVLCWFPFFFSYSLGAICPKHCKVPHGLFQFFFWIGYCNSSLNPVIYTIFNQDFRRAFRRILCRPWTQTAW
Chain of UniProt P06241 (whole entry, looked up): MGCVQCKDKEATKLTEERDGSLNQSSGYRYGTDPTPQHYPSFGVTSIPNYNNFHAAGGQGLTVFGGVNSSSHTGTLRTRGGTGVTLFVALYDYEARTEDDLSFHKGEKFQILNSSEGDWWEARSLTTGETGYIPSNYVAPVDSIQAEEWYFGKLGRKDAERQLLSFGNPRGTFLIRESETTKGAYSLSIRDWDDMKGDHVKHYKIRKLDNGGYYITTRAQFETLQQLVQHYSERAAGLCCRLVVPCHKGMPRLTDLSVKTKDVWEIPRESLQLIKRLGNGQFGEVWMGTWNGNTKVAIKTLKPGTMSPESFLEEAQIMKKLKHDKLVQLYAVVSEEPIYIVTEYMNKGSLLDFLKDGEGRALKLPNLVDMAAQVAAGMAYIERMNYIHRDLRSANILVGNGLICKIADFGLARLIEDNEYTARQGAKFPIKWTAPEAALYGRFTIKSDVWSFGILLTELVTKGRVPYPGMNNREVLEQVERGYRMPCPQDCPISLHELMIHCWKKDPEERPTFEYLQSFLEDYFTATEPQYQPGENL
Chain of UniProt Q9UM73 (whole entry, looked up): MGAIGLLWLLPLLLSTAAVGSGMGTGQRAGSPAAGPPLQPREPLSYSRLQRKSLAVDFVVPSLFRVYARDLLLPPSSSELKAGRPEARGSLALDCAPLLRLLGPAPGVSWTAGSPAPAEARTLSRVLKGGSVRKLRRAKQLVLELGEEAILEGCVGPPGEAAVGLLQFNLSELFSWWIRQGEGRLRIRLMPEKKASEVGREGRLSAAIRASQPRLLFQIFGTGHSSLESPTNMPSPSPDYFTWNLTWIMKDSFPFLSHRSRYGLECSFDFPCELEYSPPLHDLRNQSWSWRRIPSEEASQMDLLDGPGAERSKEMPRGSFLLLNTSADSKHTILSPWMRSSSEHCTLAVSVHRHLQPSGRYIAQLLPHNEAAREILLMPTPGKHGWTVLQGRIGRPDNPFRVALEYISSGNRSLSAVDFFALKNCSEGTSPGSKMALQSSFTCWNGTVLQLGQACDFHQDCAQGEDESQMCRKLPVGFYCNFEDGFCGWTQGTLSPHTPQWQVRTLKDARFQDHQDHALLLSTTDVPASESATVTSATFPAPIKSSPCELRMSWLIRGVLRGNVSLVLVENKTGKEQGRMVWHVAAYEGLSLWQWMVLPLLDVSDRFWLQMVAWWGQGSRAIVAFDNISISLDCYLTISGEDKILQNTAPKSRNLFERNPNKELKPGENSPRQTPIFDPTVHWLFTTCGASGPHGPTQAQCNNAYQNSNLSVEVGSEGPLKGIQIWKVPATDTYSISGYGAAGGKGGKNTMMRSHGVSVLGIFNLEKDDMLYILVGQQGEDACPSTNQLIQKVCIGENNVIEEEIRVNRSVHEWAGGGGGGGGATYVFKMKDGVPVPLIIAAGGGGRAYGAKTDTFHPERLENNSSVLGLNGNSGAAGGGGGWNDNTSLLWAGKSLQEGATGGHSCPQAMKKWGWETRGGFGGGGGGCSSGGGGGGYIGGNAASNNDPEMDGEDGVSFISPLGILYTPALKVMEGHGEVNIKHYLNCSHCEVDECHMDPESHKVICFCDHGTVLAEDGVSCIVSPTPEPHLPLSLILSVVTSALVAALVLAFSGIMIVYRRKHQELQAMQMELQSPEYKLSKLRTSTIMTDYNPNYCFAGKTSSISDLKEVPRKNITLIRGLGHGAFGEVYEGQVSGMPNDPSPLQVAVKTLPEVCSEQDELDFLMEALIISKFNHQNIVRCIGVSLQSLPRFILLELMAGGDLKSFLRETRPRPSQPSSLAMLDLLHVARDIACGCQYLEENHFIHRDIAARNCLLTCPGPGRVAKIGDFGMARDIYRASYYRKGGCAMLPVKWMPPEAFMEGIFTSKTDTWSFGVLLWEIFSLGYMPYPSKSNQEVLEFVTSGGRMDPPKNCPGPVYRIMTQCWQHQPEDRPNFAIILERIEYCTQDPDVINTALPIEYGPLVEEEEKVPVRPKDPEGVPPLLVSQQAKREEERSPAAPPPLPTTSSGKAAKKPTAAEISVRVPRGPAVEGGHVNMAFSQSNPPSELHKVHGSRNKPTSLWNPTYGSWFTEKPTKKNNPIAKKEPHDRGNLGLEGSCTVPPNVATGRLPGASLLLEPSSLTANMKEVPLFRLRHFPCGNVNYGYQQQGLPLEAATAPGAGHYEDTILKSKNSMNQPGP
Chain of UniProt P42679 (whole entry, looked up): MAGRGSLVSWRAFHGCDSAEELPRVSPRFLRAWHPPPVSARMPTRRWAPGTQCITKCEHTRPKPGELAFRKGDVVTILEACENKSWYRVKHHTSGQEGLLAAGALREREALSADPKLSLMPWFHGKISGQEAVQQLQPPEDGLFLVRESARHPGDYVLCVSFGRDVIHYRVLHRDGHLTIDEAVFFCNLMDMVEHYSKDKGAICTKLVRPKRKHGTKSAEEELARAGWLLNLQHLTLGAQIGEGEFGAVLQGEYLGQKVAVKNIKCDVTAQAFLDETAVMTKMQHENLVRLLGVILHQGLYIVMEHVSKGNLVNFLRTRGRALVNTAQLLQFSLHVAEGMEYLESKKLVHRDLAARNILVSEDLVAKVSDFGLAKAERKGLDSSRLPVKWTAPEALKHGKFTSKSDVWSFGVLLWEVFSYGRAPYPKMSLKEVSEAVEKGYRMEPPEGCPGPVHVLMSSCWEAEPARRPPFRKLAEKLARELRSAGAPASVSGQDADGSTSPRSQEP
Chain of UniProt P21728 (whole entry, looked up): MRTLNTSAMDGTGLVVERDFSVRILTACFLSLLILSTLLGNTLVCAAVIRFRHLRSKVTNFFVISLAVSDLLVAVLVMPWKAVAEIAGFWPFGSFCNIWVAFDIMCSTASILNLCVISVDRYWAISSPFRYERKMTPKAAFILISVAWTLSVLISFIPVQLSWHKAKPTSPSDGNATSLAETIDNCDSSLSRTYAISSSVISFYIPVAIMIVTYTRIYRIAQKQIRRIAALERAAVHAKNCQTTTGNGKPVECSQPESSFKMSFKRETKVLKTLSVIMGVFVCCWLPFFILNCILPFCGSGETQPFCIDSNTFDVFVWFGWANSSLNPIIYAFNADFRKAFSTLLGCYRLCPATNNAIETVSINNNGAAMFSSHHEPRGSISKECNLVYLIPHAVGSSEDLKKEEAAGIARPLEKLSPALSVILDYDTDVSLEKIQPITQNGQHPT

Sample 1
SMILES: CCC(=O)N[C@@H]1CC[C@H](C(=O)N(C)c2ccc(-c3nc4ccccc4o3)cc2)C1
Observed: binding
Method: radioligand binding
Tested at: 10 µM
| target | inhibition |
| --- | --- |
| D(1A) dopamine receptor (DRD1, Homo sapiens, UniProt P21728) | -1.16% |
| Alpha-2B adrenergic receptor (ADRA2B, Homo sapiens, UniProt P18089) | 7.05% |
| Alpha-1B adrenergic receptor (ADRA1B, Homo sapiens, UniProt P35368) | -6.47% |
| Alpha-2C adrenergic receptor (ADRA2C, Homo sapiens, UniProt P18825) | -2.55% |
| Beta-3 adrenergic receptor (ADRB3, Homo sapiens, UniProt P13945) | -2.82% |
| Histamine H1 receptor (HRH1, Homo sapiens, UniProt P35367) | 18.6% |
| Muscarinic acetylcholine receptor M2 (CHRM2, Homo sapiens, UniProt P08172) | 17.9% |
| Muscarinic acetylcholine receptor M4 (CHRM4, Homo sapiens, UniProt P08173) | 5.19% |
| Histamine H2 receptor (HRH2, Homo sapiens, UniProt P25021) | -11.5% |
| 5-hydroxytryptamine receptor 7 (HTR7, Homo sapiens, UniProt P34969) | -13.7% |
| Histamine H4 receptor (HRH4, Homo sapiens, UniProt Q9H3N8) | 55.3% |
| 5-hydroxytryptamine receptor 3A (HTR3A, Homo sapiens, UniProt P46098) | -9.11% |
| 5-hydroxytryptamine receptor 5A (HTR5A, Homo sapiens, UniProt P47898) | -3.5% |
| Alpha-1D adrenergic receptor (ADRA1D, Homo sapiens, UniProt P25100) | -19.6% |

Sample 2
Host: mouse
Medium: microsomes or S9
Tested at: 2 µM
Time: 0.5 h
| Structure (SMILES) | remaining compound [%] |
| --- | --- |
| COc1ccc(CCc2nc(CCS(C)(=O)=O)c(O)c(C(=O)O)c2C(=O)O)cc1 | 81.3 |
| Cc1ccccc1Cc1c(C)nc2c(C(=O)N3CCc4c(c(-c5nncn5C)nn4C)C3)cnn2c1C | 0.0604 |
| Cc1cc(C)cc(C(=O)c2c(C(C)C)c(=O)[nH]c(=O)n2Cc2cc(F)nc(F)c2)c1 | 54.4 |
| CCC1CCCCN1C(=O)c1sc2nc(C)nc(N(CC)CC)c2c1C (stereo not shown) | 0.0529 |
| COc1cc(Br)c(S(=O)(=O)NC2CCN(S(=O)(=O)c3ccccc3)CC2)cc1OC | 75.9 |
| N#Cc1ccccc1N1CCN(C2CCC(C(=O)Nc3cccc(Cl)c3Cl)C2)CC1 (stereo not shown) | 0.755 |
| CN(C(=O)CN1CC[C@@H]2OCc3cnnn3[C@H]2C1)c1ccccc1 | 78.2 |
| COc1ccc(/C=C/c2cc(OC)cc3oc(-c4ccc(OC)cc4)c(-c4cc(OC)cc(OC)c4)c23)cc1 | 91.7 |
| OCCNc1nc(Cl)nc(Nc2ccc3c(c2)OCO3)n1 | 18.4 |
| O=C1CC(c2ccsc2)c2ccc3ccccc3c2N1 (stereo not shown) | 0.592 |
| Cc1c(C(=O)N2c3ccccc3CC2C)sc2nc(-c3ccccc3)cn12 (stereo not shown) | 3.14 |

Sample 3
Structure (SMILES): CC(C)n1cnc(-c2ccc(F)cc2)c1-c1ncc(C(=O)Nc2ccc(N3CCN(C)CC3)cc2)[nH]1
| method | refers to | host | route | dose | setting | patients with TEAE [%] |
| --- | --- | --- | --- | --- | --- | --- |
| phase 2a trial | – | idiopathic pulmonary fibrosis patients | oral | 30 mg once daily | ESR increased, grade 2 | 0 |
| phase 2a trial | – | idiopathic pulmonary fibrosis patients | oral | 30 mg once daily | urine red cells, grade 3 | 0 |
| phase 2a trial | – | idiopathic pulmonary fibrosis patients | oral | 60 mg once daily | GLDH increased, grade 1 | 0 |
| phase 2a trial | – | idiopathic pulmonary fibrosis patients | oral | 60 mg once daily | LDL increased, grade 2 | 0 |
| phase 2a trial | – | idiopathic pulmonary fibrosis patients | oral | 30 mg once daily | GLDH increased, grade 1 | 0 |
| – | endocrine disorders | idiopathic pulmonary fibrosis patients | – | 60 mg once daily | – | 0 |
| phase 2a trial | – | patients with idiopathic pulmonary fibrosis | – | 60 mg once daily | atopic dermatitis, grade 4 | 0 |
| phase 2a trial | – | patients with idiopathic pulmonary fibrosis | – | 30 mg once daily | endocrine disorders SOC, grade 2 | 0 |
| phase 2a trial | – | patients with idiopathic pulmonary fibrosis | – | 60 mg once daily | free thyroxine decreased, grade 3 | 0 |
| phase 2a trial | – | patients with idiopathic pulmonary fibrosis | – | dose not given | endocrine disorders SOC, grade 4, all arms | 0 |
| phase 2a trial | – | idiopathic pulmonary fibrosis patients | oral | 30 mg once daily | disc protrusion, grade 2 | 0 |

Sample 4
Structure (SMILES): COc1ccc(COc2ccc(Cc3cnc(N)nc3N)cc2OC)cc1
Observed: enzyme activity
Action: inhibitor
Tested at: 0.5 µM
Reference: control
| target | remaining activity [%] |
| --- | --- |
| Serine/threonine-protein kinase TAO3 (TAOK3, Homo sapiens, UniProt Q9H2K8) | 102 |
| Homeodomain-interacting protein kinase 1 (HIPK1, Homo sapiens, UniProt Q86Z02) | 110 |
| Serine/threonine-protein kinase NLK (NLK, Homo sapiens, UniProt Q9UBE8) | 105 |
| Tyrosine-protein kinase Fyn (FYN, Homo sapiens, UniProt P06241) | 102 |
| ALK tyrosine kinase receptor (ALK, Homo sapiens, UniProt Q9UM73) | 97.4 |
| Cyclin-dependent kinase 3, with cyclin E (CDK3, Homo sapiens, UniProt Q00526) | 82.9 |
| Megakaryocyte-associated tyrosine-protein kinase (MATK, Homo sapiens, UniProt P42679) | 94.8 |
| Serine/threonine-protein kinase N1 (PKN1, Homo sapiens, UniProt Q16512) | 101 |
| Tyrosine-protein kinase Fgr (FGR, Homo sapiens, UniProt P09769) | 92.3 |
| PAS domain-containing serine/threonine-protein kinase (PASK, Homo sapiens, UniProt Q96RG2) | 103 |
| Serine/threonine-protein kinase Nek11 (NEK11, Homo sapiens, UniProt Q8NG66) | 103 |
| Insulin receptor (INSR, Homo sapiens, UniProt P06213) | 97 |
| Tyrosine-protein kinase Fer (FER, Homo sapiens, UniProt P16591) | 93.4 |

For quick reference, copied from above (sample 4):
| target | remaining activity [%] |
| --- | --- |
| Tyrosine-protein kinase Fer (FER, Homo sapiens, UniProt P16591) | 93.4 |
| Insulin receptor (INSR, Homo sapiens, UniProt P06213) | 97 |
| Cyclin-dependent kinase 3, with cyclin E (CDK3, Homo sapiens, UniProt Q00526) | 82.9 |
| Serine/threonine-protein kinase NLK (NLK, Homo sapiens, UniProt Q9UBE8) | 105 |
| Serine/threonine-protein kinase Nek11 (NEK11, Homo sapiens, UniProt Q8NG66) | 103 |
